# Measurements gathered from unrelated publications.
# Each numbered part is a random draw from the data of one study; scales do not carry over between parts. Values joined by “and” are separate records of one study, mostly repeats; a detail may differ. pIC50: −log10 of the molar value.
# Sequence of UniProt P10632 (whole entry, looked up): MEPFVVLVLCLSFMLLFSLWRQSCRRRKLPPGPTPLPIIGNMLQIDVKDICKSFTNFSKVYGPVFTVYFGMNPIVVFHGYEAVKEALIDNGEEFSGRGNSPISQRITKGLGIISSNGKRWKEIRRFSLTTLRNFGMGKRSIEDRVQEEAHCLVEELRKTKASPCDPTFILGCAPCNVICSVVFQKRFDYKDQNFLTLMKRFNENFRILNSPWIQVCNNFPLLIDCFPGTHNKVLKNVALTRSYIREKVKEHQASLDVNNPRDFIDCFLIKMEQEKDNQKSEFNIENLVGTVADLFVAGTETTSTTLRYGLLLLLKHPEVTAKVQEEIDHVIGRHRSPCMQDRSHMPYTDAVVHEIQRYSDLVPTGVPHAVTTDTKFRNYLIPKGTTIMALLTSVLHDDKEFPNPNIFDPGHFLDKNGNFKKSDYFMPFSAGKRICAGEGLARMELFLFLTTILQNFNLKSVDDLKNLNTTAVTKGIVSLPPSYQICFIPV
# Sequence of UniProt P10635 (whole entry, looked up): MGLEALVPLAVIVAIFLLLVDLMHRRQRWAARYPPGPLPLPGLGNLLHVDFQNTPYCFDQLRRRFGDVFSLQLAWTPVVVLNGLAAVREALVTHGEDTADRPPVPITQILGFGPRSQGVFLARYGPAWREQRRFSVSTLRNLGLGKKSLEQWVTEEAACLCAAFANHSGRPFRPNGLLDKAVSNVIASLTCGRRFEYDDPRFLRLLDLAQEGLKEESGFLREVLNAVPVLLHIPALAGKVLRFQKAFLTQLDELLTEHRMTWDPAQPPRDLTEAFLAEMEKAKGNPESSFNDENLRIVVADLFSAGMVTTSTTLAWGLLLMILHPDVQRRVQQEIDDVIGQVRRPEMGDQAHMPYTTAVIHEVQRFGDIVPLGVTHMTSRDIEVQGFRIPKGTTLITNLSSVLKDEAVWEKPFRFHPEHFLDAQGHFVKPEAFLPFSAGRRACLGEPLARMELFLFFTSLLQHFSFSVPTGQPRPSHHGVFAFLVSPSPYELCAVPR
# Sequence of UniProt P11712 (whole entry, looked up): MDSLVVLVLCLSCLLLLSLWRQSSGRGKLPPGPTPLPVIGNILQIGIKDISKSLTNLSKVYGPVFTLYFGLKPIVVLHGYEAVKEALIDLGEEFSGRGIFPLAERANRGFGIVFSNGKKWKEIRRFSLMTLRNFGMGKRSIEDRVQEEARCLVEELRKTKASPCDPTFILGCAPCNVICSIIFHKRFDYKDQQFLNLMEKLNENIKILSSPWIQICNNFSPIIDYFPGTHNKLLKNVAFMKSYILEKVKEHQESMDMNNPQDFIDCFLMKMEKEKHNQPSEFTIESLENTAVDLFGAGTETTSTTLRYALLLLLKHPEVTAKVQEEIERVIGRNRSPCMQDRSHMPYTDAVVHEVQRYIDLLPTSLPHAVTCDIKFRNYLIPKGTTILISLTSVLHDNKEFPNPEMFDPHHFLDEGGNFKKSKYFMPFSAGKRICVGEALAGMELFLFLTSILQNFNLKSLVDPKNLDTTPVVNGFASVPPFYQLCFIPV
# Sequence of UniProt P05177 (whole entry, looked up): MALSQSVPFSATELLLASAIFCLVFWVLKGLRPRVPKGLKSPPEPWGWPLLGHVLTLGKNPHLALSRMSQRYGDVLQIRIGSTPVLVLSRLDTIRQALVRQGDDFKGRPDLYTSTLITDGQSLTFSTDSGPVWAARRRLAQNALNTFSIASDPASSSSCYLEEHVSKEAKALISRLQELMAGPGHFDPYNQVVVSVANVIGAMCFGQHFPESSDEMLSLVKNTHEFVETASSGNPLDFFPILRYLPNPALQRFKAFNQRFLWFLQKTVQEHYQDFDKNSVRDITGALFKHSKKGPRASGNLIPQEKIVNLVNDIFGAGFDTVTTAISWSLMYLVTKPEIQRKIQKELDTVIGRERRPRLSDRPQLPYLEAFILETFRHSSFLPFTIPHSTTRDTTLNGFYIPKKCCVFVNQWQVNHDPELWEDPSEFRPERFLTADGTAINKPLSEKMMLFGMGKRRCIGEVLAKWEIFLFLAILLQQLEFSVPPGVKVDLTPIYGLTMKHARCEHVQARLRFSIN
# Sequence of UniProt Q12809 (whole entry, looked up): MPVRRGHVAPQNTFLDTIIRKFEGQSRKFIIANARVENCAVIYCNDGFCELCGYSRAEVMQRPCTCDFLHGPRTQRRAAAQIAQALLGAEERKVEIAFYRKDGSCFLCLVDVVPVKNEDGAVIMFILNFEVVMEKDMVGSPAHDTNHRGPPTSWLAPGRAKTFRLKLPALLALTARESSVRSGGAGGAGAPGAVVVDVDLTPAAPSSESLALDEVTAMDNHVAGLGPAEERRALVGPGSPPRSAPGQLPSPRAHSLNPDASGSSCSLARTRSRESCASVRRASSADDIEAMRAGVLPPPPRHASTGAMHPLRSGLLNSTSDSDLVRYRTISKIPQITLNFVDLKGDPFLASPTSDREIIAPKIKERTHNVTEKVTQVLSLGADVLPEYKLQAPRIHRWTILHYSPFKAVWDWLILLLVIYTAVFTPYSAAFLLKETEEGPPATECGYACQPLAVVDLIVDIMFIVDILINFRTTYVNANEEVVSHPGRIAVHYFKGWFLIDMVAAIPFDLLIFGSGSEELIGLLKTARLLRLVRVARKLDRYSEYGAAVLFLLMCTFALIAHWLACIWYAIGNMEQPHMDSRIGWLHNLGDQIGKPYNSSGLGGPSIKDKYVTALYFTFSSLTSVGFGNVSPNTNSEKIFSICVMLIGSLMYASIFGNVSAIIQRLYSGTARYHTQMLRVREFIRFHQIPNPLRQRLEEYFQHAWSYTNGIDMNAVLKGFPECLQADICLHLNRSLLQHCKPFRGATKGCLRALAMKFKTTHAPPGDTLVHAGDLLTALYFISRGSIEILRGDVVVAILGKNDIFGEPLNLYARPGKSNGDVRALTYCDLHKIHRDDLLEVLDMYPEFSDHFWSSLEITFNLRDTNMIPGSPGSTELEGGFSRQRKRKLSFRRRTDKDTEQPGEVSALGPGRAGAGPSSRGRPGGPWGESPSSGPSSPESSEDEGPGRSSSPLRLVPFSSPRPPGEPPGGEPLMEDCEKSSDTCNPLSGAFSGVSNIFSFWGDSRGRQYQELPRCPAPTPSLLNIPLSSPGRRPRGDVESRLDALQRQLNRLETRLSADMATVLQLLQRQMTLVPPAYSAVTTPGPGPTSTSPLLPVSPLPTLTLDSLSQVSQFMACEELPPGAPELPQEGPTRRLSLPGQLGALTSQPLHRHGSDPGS

# Sample 1
# SMILES: C=C(CN)COc1cccc(Cn2c(=S)[nH]c(=O)c3[nH]cnc32)c1
# AOC3: Amine oxidase [copper-containing] 3 (AOC3, Homo sapiens, UniProt Q16853)
# Sequence of UniProt Q16853 (whole entry, looked up): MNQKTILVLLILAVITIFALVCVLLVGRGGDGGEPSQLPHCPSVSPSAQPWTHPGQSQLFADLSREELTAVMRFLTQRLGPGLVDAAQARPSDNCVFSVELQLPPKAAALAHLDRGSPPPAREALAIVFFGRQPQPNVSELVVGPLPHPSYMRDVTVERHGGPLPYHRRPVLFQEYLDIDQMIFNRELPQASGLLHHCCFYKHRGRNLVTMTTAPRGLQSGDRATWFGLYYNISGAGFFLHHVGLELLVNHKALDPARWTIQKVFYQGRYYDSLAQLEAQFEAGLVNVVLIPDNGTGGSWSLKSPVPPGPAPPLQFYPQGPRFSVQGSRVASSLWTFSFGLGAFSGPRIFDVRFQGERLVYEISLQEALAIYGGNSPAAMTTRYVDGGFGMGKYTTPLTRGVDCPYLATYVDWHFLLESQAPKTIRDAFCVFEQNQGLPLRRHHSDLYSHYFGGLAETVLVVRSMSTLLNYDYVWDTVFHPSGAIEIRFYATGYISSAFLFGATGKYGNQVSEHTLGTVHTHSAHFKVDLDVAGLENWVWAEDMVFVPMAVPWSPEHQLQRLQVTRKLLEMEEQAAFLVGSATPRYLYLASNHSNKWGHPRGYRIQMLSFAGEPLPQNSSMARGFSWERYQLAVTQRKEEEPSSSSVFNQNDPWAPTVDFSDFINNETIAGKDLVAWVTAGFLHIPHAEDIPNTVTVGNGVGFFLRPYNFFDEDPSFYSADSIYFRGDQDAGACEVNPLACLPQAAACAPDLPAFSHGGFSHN
# MPO: Myeloperoxidase (MPO, Homo sapiens, UniProt P05164)
# Sequence of UniProt P05164 (whole entry, looked up): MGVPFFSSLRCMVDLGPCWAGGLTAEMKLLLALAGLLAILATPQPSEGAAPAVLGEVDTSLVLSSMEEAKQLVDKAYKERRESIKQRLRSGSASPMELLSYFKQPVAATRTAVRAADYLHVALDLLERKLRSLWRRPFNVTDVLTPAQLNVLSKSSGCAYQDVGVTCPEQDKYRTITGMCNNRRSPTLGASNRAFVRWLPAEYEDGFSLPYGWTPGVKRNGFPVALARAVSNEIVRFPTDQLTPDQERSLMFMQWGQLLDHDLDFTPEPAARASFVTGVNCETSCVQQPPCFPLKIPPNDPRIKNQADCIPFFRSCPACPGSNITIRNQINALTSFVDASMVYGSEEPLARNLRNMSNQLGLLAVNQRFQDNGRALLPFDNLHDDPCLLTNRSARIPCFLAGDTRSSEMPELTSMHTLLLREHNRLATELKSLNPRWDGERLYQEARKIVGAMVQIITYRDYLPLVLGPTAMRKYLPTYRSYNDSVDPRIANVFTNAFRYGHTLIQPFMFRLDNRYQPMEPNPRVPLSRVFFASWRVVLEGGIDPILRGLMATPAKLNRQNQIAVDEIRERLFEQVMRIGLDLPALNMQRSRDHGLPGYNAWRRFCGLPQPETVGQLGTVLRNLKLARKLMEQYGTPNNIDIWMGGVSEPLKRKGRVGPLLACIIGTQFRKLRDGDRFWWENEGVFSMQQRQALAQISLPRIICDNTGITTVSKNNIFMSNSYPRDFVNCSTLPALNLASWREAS
target,assay,conditions,inhibition
AOC3,"H2O2 production, inhibitor, Amplex Red",0.0046 µM,-4.79 % Inhibition and 8.21 % Inhibition
AOC3,"enzyme activity, Amplex Red H2O2 production",1.111 µM,47.9%
MPO,"enzyme activity, inhibitor, fluorescence",3.333 µM,100%
AOC3,"H2O2 production, inhibitor, Amplex Red",0.0137 µM,-2.51 % Inhibition and 20.6 % Inhibition
AOC3,"H2O2 production, inhibitor, Amplex Red",30 µM,90.1 % Inhibition
AOC3,"enzyme activity, Amplex Red H2O2 production",0.3704 µM,27.5%
MPO,"enzyme activity, inhibitor, fluorescence",200 pM,2.07%
MPO,enzyme activity,0.0412 µM,73.7% and 80.1%

# Sample 2 — action: inhibitor
# Structure (SMILES): CC[C@@]1(c2cccc(C(F)(F)F)c2)C2=C(Nc3n[nH]cc31)[C@H](F)C(C)(C)CC2=O (single isomer, unassigned)
target,assay,pIC50
"KCNH2 (Homo sapiens, UniProt Q12809)",ion current,< 4.52
"Cytochrome P450 2C9 (CYP2C9, Homo sapiens, UniProt P11712)",enzyme activity,5.01
"Cytochrome P450 2C8 (CYP2C8, Homo sapiens, UniProt P10632)",enzyme activity,< 5.00
"Cytochrome P450 1A2 (CYP1A2, Homo sapiens, UniProt P05177)",enzyme activity,< 5.00
"CYP2C19 (Homo sapiens, UniProt P33261)",enzyme activity,< 5.00
"Cytochrome P450 2D6 (CYP2D6, Homo sapiens, UniProt P10635)",enzyme activity,< 5.00

# Sample 3 — technique: qRT-PCR; species: mouse, PK-59 xenograft; sample: tumour; setting: unit not given
# Structure (SMILES): Cc1ncsc1-c1ccc(C(CO)NC(=O)C2CC(O)CN2C(=O)C(C(C)C)n2cc(-c3ccc(COc4c(-c5c(C)c(F)cc6[nH]ncc56)c(C5CC5)cc5c(N6CC7CC6CN7)nc(OC6CCOCC6)nc45)cc3)nn2)cc1 (centres unmarked)
assay,conditions,scale,mRNA level
measured: ETV4,"30 mg/kg, 144 h",relative to: vehicle,0.247 and 0.317
measured: FOSL1,"intravenous, 10 mg/kg, 72 h","relative to: vehicle, same time point",0.00392 and 0.00386 and 0.00353
measured: DUSP6,"10 mg/kg, 2 h",relative to: vehicle,0.693 and 0.502 and 0.615
measured: FOSL1,"intravenous, 30 mg/kg, 6 h","relative to: vehicle, same time point",0.00249 and 0.00377 and 0.00239
measured: FOSL1,"intravenous, 30 mg/kg, 24 h","relative to: vehicle, same time point",0.000864 and 0.000767 and 0.000875
measured: MYC,"30 mg/kg, 24 h",relative to: vehicle,0.328 and 0.434 and 0.343
measured: ETV4,"30 mg/kg, 2 h",relative to: vehicle,1.14 and 0.792 and 0.747
measured: MYC,"intravenous, 10 mg/kg, 144 h","relative to: vehicle, same time point",0.0753 and 0.0787 and 0.108

# Mixed results
Compound,test system,conditions,measurement,value
Cn1cc(-c2cccc(CN3CCC4(CC3)COc3c4ccc4c3CN([C@H]3CCC(=O)NC3=O)C4=O)c2)cn1,mouse Crbn I391V,"oral, 30 mg/kg",maximum unbound thymus concentration,~8.4 nM

# A few entries again (sample 2):
target,assay,pIC50
"KCNH2 (Homo sapiens, UniProt Q12809)",ion current,< 4.52
